Measurements collected from several papers.
A part holds a random share of what one study measured.

Study 1
Target: RNA binding protein fox-1 homolog 2, RRM domain, GST-SBP tag (RBFOX2, Homo sapiens, UniProt O43251-10, residues 100-194)
Technique: RNA Bind-n-Seq
Molecule type: RNA
Sample: in vitro
Tested at: 365 nM
Setting: natural RNA segment, single round, ends assumed
Reference: no-protein control
Direction: higher = stronger binding
Endpoint: RBNS enrichment (R)
Target sequence (chain): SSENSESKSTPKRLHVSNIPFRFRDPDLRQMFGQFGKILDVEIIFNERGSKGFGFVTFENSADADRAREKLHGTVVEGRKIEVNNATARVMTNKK
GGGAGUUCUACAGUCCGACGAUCUUUUUUUAAACAAAACAAACUAAGCAAUAGUUUGGGCAGUUCUAGUUGUUUUUAGUGAGCAUGUUGUAGUCUCGACUGCAAAGAGAGAGAAUAAACUGCCCACUCAGAAGUGGAAUUCUCGGGUGCCAA: 1.99
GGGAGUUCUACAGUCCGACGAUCUUCCUCCUGAAACUUGAGGAAGUCUUUUGUCUUCCAGCUGCUCAGGGUUCUCUGGUCCAAGACCCUGCUUUAAAGAGAGUCUUUGGCGUGCUCAGACUCCAGCGCUCCGUUGGAAUUCUCGGGUGCCAA: 0.229
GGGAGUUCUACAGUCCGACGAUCACAUGCGCCACCAAGCAGAUCCCAGCAAGGGUGCCCCAGUCACAUCCUUGGCCAUGCAGUUAGCACCUUCCUGUCAUGGGGAAGAUAUAGUGAAUUGCCCUGAGCUGCCUUGGAAUUCUCGGGUGCCAA: 0.261
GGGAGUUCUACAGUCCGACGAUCAACUUUGAGCAAAUAGCAGUGAUGUUUUAGGAACUGAAAUGUCACACUUAAAGUCUUCAGCCCAGCUACUUCCCUAUUUUUGUGGGGAGAAGAGGGCCUGAUUAGAACUGUGGAAUUCUCGGGUGCCAA: 0.243
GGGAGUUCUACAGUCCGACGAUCCAUCCUGGUUUCCACCCCGGGCUGGCUAGCUCUGUUGGUUUGAAGACUGACAGCCAGCCUGGCUCAUUCUCAUUAUUGGCUAGUUAGCUUUCUUUAUCAACCUGCUCACUUGGAAUUCUCGGGUGCCAA: 0.403
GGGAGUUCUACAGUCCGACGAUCAAGUAGGGUGGGGAAGUGUGGAGGAGGUGACUGGCCUGCCUCAAAUGCAUGUUUUGAGAUGUUUGACCACUUCAGCAACUACGUCAGUGGCUUCAGGAUCGGGUGUACUGUGGAAUUCUCGGGUGCCAA: 44.1
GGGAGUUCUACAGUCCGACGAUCUCUGUAGCCCUAACACAUGGGAUGAACGUUUUACUGCUACACCCAGAUUUGUGUUGAACGAAAACAUUGUGGUUUGGAAAGGAGAAUUCAACAAUUAAUAGUUGAAAUUGUGGAAUUCUCGGGUGCCAA: 0.411
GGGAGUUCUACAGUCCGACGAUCUGCUCCCGCUAUAUCCCAGGCCUCACCCUUUUCUGAUCAUUAUCAGAAAGAAUCCCCUGAACUUUUCAAGGGGUUUAUAUGGUAGCACCAAAUGGAGAAUGAGCAUCUAAUGGAAUUCUCGGGUGCCAA: 0.612

Study 2
Target: Histone acetyltransferase KAT6A, winged helix 2, GST fusion (KAT6A, Homo sapiens, UniProt Q92794, residues 85-181)
Technique: protein binding microarray
Molecule type: double-stranded DNA, one strand shown
Sample: in vitro
Tested at: not given
Setting: 8-mer, flanks averaged, mean of 2 arrays, mostly near background
Reference: not given
Direction: higher = stronger binding
Endpoint: E-score
Target sequence (chain): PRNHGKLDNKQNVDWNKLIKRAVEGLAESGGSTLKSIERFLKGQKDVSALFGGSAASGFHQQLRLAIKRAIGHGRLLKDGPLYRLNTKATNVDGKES
ACAAGTAA: -0.16
TGCGGGAA: 0.17
ATCTCCCA: -0.0581
ATTTTTAG: 0.0789
GAACTCCA: 0.0295
CCCGTGTA: -0.0431
ATCACTAC: -0.0631
CCTTCGAG: -0.0139
CCTTGTCC: 0.0988
CTGGCGTA: 0.192
ACGTCCCC: -0.16
CAGGAAGC: 0.133
CATTTTTC: 0.112
AACCGGGG: -0.0749
CCTCGATC: -0.00563
CCCTAGGG: 0.066
ATAACCAA: -0.0547
CGATGTGC: 0.091
GCGTCACA: -0.00561
CGAGCTAG: -0.0144
CCCGTCCC: 0.139
CAGTTGTA: -0.0631
CAGCGTGC: 0.188
TCCAGCGA: 0.00407
ATACGTCA: -0.189

Study 3
Target: Protein max, full length (MAX, Homo sapiens, UniProt P61244-2, residues 1-151)
Technique: protein-binding microarray
Molecule type: double-stranded DNA, one strand shown
Sample: in vitro
Tested at: not given
Setting: k-mer, scored over probes, only values ≥0.25
Direction: higher = stronger binding
Endpoint: E-score
ACGTTGTC: 0.356
CGTGCTAC: 0.408
GCCCACGC: 0.439
AATGTGAT: 0.278
AAGAGCAC: 0.259
ACACGCGG: 0.472
AGGCGTGC: 0.363
AATGCACG: 0.362
AATAACAC: 0.28
ACGCGCAC: 0.345
ATGAGGGC: 0.308
ACGTTTTC: 0.287
AAGCATGC: 0.456
CGTGGAAC: 0.323
CGGTGCGC: 0.252
GCCCCTCC: 0.295
TGCTGCAA: 0.258
CGTGGGCA: 0.352
CATGCGCG: 0.418
AATGGCAC: 0.267
GCATACAC: 0.264
CTCATGGA: 0.265
ACACGGGT: 0.299
CACATGTG: 0.481
ACGTGTGA: 0.42

Study 4
Target: Ras GTPase-activating protein-binding protein 1, C-terminal RGG region (G3BP1, Homo sapiens, UniProt Q13283)
UniProt Q13283, sequence (whole entry, looked up): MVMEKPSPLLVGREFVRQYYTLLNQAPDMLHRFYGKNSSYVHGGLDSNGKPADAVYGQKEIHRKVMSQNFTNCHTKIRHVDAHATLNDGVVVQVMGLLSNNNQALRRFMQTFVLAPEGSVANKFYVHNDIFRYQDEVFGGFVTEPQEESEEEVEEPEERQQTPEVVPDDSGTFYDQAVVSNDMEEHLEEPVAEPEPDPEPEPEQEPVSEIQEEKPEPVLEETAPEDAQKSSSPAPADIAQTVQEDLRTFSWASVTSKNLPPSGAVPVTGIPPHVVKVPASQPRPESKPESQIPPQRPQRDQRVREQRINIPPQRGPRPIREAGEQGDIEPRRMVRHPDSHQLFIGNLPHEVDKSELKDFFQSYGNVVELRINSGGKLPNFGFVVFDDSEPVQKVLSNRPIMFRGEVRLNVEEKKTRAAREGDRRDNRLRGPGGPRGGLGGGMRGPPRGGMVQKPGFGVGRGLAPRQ
Technique: RNA Bind-n-Seq
Molecule type: RNA
Sample: in vitro
Tested at: 1 µM
Setting: whole 134-nt RNA, ends assumed
Together with: 150 mM KCl
Reference: input library
Direction: higher = stronger binding
Endpoint: log2 enrichment
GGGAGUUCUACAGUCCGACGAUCUGGCCCUGGUGGCAUGCGCGGAGGAAGAGGUGGCCUCAUGGAUCGUGGUGGUCCCGGUGGAAUGUUCAGAGGUGGCCGUGGUGGAGACAGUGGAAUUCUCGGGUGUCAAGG: 1.83
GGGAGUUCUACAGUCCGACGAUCUAACUUUAGAGGAGGAUCUGAUGGAUAUGGCAGUGGACGUGGAUUUGGGGCUGGCUAUAAUGGGUAUGGAGGAGGACCUGGAGGUGGCAAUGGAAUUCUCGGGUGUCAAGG: -0.599
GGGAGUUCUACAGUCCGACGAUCAGUCCUGUGCUACACAUCGUAUGUACCGAAUCAAACCCAAAUUUAAAUUUUUUUAAAAAAGUAUUAUGUUACGCCGUUCGGAUCUGCACUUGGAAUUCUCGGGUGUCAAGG: -1.22
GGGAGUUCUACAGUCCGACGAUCACCAUGCAGGUGGGCAUCUUUGGGAAGUGGGGCAAGGGGGGAAUAGGGAGGGGGGUAACACUUUGGGAACAGGUGGUCCCAGGUCGUUUCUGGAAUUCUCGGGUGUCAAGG: 2.16
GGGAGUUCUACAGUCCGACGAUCAAGUCCUGUGCUACACAUCGUAUGUACCGAAUCGGCCCCGGGCCCCGGCCCCGGGGAAAGUAUUAUGUUACGCCGUUCGGAUCUGCACUUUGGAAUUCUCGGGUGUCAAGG: -2.17
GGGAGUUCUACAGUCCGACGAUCUCAAGUCCUGUGCUACACAUCGUAUGUACCGAAUCGGGAAGGGAAGGGAAGGGGAAAGUAUUAUGUUACGCCGUUCGGAUCUGCACUUCCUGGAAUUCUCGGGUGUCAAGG: 2.78
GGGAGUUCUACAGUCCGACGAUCGUCCUGUGCUACACAUCGUAUGUACCGAAUCGGGGUUUGGGGAAAAAAAGGGGUGGGGAAAGUAUUAUGUUACGCCGUUCGGAUCUGCACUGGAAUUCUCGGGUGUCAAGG: 1.68
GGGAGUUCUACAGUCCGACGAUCUCAAGUCCUGUGCUACACAUCGUAUGUACCGAAUCGGGAGGGUUUUUGGGUGGGAAAGUAUUAUGUUACGCCGUUCGGAUCUGCACUUCCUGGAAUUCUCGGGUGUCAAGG: 1.14
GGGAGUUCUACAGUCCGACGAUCAGUUACGGUAGCAGUUCUCAGAGCAGCAGCUAUGGGCAGCCCCAGAGUGGGAGCUACAGCCAGCAGCCUAGCUAUGGUGGACAGCAGCAAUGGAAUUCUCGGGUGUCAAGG: -1.96

Some of these lines once more (study 2):
ACGTCCCC: -0.16
ATCTCCCA: -0.0581
CAGTTGTA: -0.0631
CCCGTGTA: -0.0431
CCCGTCCC: 0.139
CGATGTGC: 0.091
